Experimental data from different studies.
Compare with care: the assays were run in different laboratories. ± gives the spread as reported.
YWHAZ: 14-3-3 protein zeta/delta (YWHAZ, Homo sapiens, UniProt P63104)
Sequence of UniProt P63104 (whole entry, looked up): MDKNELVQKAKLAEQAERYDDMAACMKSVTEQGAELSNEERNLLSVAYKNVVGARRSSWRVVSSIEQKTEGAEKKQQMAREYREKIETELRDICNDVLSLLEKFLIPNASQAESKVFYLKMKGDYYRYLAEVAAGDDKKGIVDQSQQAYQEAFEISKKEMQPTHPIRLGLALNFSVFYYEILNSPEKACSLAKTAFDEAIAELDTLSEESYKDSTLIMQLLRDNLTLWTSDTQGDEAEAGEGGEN
Sequence of UniProt Q9Y294 (whole entry, looked up): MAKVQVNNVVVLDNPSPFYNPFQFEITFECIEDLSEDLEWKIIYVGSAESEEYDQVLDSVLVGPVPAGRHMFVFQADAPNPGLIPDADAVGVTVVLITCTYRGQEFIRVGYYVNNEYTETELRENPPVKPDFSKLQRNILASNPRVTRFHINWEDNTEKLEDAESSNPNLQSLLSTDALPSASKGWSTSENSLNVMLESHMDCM
Sequence of UniProt O35082 (whole entry, looked up): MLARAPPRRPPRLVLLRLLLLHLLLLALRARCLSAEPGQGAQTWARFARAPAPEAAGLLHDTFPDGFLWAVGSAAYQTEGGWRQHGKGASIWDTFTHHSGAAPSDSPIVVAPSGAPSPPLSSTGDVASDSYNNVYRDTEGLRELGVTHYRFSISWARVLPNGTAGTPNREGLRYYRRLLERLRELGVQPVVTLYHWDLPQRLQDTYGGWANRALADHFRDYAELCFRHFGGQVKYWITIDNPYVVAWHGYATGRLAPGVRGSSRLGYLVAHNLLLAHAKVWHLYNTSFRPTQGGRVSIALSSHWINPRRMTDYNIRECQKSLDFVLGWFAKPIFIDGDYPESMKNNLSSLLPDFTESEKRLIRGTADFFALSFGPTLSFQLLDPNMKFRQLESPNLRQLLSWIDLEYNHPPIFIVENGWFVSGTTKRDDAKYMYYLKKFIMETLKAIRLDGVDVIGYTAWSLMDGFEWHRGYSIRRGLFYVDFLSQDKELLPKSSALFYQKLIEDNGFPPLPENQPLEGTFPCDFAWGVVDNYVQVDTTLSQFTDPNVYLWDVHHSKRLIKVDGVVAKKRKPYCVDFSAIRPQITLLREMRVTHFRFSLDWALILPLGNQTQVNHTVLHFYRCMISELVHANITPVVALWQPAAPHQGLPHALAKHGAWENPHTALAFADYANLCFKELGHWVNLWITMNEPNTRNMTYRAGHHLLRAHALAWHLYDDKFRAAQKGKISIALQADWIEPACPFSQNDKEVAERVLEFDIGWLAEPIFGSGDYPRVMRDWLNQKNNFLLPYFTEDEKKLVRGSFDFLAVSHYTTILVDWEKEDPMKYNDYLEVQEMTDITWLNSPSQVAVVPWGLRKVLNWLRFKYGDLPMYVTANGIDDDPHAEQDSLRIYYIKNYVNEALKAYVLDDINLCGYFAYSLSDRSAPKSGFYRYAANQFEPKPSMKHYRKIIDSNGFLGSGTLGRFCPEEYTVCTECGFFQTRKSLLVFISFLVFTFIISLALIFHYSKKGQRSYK
Sequence of UniProt P22455 (whole entry, looked up): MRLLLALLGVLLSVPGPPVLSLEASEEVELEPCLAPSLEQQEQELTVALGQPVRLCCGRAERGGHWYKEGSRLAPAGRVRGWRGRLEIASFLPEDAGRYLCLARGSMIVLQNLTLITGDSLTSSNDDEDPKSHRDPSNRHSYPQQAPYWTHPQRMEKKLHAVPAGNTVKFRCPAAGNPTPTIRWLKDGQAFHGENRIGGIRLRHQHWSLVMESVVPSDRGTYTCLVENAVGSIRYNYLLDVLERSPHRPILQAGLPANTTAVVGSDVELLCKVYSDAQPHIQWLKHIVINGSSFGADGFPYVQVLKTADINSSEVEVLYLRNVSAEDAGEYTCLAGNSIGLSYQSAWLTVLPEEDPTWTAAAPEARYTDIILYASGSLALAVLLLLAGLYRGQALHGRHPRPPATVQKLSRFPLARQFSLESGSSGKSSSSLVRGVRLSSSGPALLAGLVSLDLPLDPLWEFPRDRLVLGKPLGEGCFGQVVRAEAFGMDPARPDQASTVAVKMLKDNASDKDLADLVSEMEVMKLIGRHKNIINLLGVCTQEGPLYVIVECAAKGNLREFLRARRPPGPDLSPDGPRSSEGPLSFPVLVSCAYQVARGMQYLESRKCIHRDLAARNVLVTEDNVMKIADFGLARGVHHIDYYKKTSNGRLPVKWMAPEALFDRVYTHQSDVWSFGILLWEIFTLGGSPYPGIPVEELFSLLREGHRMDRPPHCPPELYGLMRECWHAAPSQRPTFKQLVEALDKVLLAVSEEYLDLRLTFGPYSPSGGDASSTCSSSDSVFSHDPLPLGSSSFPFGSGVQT
Sequence of UniProt Q05097 (whole entry, looked up): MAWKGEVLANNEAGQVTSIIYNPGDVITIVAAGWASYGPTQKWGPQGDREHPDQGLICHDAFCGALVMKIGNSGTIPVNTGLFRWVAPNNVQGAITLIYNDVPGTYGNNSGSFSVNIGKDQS
Sequence of UniProt Q9NZC7 (whole entry, looked up): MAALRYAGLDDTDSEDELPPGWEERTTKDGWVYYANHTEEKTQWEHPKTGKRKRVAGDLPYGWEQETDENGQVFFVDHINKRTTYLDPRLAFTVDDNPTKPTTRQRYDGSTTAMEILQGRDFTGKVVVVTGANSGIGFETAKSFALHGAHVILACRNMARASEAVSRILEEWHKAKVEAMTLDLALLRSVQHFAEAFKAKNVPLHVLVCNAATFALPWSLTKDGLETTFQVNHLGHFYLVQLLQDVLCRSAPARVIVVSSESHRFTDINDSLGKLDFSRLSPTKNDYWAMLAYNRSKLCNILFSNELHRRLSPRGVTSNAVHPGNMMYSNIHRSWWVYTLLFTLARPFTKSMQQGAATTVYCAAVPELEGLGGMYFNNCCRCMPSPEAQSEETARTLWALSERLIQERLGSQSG
Sequence of UniProt Q9FIP9 (whole entry, looked up): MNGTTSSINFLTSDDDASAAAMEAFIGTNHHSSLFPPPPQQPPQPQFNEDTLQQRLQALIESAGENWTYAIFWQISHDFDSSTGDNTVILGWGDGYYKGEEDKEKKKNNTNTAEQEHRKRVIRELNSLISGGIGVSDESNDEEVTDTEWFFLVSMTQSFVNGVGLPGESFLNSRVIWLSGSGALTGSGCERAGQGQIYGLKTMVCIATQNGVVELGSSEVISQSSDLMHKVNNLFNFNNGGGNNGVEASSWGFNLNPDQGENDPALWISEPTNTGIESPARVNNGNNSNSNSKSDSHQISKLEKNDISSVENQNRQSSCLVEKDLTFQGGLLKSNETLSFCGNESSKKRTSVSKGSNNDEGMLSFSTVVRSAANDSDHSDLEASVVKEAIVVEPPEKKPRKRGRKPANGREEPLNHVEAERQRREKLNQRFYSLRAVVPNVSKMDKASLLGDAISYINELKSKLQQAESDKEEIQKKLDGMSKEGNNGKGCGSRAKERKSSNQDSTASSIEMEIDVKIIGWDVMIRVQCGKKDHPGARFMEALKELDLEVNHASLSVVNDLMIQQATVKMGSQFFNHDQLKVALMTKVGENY
Sequence of UniProt Q9NQG5 (whole entry, looked up): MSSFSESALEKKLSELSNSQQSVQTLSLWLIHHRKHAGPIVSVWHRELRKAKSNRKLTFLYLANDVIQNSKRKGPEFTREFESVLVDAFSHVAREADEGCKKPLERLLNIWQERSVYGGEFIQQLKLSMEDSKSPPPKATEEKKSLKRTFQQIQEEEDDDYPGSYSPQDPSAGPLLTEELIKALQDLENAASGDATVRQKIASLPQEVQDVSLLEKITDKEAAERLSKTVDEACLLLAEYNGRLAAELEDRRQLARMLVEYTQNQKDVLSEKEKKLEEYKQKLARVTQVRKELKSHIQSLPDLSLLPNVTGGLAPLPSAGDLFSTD
Sequence of UniProt P63165 (whole entry, looked up): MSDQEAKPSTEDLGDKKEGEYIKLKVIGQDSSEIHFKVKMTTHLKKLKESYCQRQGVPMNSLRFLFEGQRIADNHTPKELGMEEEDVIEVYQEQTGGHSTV
Sequence of UniProt P12004 (whole entry, looked up): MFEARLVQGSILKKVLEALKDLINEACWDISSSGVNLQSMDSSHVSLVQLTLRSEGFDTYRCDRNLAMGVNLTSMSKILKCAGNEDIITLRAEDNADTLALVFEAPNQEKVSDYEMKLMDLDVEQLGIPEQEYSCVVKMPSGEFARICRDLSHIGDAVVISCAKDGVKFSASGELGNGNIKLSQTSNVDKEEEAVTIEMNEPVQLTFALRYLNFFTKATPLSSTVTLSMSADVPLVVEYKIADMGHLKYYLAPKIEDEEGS
Sequence of UniProt Q16762 (whole entry, looked up): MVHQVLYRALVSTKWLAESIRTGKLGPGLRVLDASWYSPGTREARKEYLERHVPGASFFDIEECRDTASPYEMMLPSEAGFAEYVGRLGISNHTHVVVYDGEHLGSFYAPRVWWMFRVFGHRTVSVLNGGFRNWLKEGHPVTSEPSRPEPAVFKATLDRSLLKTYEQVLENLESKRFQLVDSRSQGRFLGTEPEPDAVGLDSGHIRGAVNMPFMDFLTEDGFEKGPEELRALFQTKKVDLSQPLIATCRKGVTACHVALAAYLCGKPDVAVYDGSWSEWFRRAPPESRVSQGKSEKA
Sequence of UniProt A0A2U7XUH7 (whole entry, unmodified, looked up): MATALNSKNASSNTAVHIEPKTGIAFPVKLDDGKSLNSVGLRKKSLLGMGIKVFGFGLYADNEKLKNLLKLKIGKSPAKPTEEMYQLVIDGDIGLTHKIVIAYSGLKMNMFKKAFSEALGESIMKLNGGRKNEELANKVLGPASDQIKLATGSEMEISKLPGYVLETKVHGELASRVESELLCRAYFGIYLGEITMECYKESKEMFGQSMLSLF

`CC(C)C[C@H](NC(=O)[C@H](Cc1c[nH]cn1)NC(=O)[C@H](C)N)C(=O)N[C@@H](CCCNC(=N)N)C(=O)N[C@@H](Cc1ccc(O)cc1)C(=O)N[C@@H](Cc1c[nH]cn1)C(=O)N[C@@H](Cc1c[nH]cn1)C(=O)N[C@@H](Cc1c[nH]cn1)C(=O)N[C@@H](C)C(=O)N[C@H](C(=O)N1CCC[C@H]1C(=O)N[C@@H](C)C(=O)O)C(C)C` gave a Kd of 0.124 µM (Small ubiquitin-related modifier 1 (Homo sapiens, UniProt P63165); binding, BLI).
With `O=C1SCCC1NC(C(=O)NCc1ccccc1)C1CC1` (stereo not drawn) the Kd was 93.3 µM (TST (Homo sapiens, UniProt Q16762); activator; binding to substrate-bound enzyme).
`CC(C)P(=S)(NP(=[Se])(C(C)C)C(C)C)C(C)C` gave a Kd of 1130 µM (Alpha-amylase (Bacillus subtilis, UniProt P00691); fluorescence quenching; 304 K).
The Kd of `CC(=O)NC1C(OC2C(O)C(CO)OC(OC3C(O)C(CO)OC(OC4C(O)C(O)OC(CO)C4O)C3NC(C)=O)C2OC2OC(C)C(O)C(O)C2O)OC(CO)C(O)C1O` (stereo not drawn) is reported as 5.7 µM (sly (Streptococcus suis, UniProt Q55996); binding).
For `CC[C@H](C)[C@H](NC(=O)[C@@H](N)CCCCN)C(=O)N1CCC[C@H]1C(=O)N[C@@H](Cc1ccc(O)cc1)C(=O)N[C@@H](Cc1ccccc1)C(=O)N[C@@H](Cc1c[nH]cn1)C(=O)N[C@@H](C)C(=O)NCC(=O)NCC(=O)N[C@@H](CO)C(=O)N[C@@H](CCCCN)C(=O)N[C@@H](CS)C(=O)N[C@@H](CO)C(=O)N[C@H](C(=O)N[C@@H](Cc1ccc(O)cc1)C(=O)N1CCC[C@H]1C(=O)N[C@@H](CC(C)C)C(=O)N1CCC[C@H]1C(=O)N[C@@H](CCC(N)=O)C(=O)N1CCC[C@H]1C(=O)N[C@@H](CO)C(=O)O)[C@@H](C)OP(=O)(O)O`, the Kd was 0.4 ± 0.2 µM (YWHAZ; binding, isothermal titration calorimetry; 37 °C, first site, two-site model, added: phosphorylated PRLR peptide).
With `CC(C)C[C@H](NC(=O)[C@H](C)NC(=O)[C@H](Cc1ccccc1)NC(=O)[C@H](Cc1c[nH]c2ccccc12)NC(=O)C1(C)CCCC=CCCCC(C)(NC(=O)[C@H](C)NC(=O)[C@@H](NC(=O)[C@H](Cc2ccccc2)NC(=O)[C@H](CC(N)=O)NC(=O)CCCCCNC(=S)Nc2ccc3c(c2)C(=O)OC32c3ccc(O)cc3Oc3cc(O)ccc32)[C@@H](C)O)C(=O)N[C@@H](CC(N)=O)C(=O)N[C@@H](CC(C)C)C(=O)N[C@@H](CCC(=O)O)C(=O)N1)C(N)=O` (stereo partly drawn) the Kd was 12 to 15 µM (RPA70C/32D/14 complex; binding, fluorescence polarisation; FITC-labelled stapled peptide).
For `CSCC[C@H](NC(C)=O)C(=O)N[C@@H](Cc1ccccc1)C(=O)N[C@@H](CC(N)=O)C(=O)N[C@H]1CSCc2cc3cc(c2)CSC[C@H](NC(=O)[C@H]([C@@H](C)O)NC(=O)[C@H](Cc2c[nH]cn2)NC(=O)[C@H](CO)NC(=O)[C@H](Cc2ccc(O)cc2)NC(=O)[C@H](Cc2ccccc2)NC(=O)[C@@H]2CCCN2C(=O)[C@H](CC(C)C)NC(=O)[C@H](CC(C)C)NC1=O)C(=O)N[C@@H](CO)C(=O)N[C@H](C(=O)NCC(=O)N[C@@H](CO)C(=O)NCC(=O)N[C@@H](CO)C(=O)NCC(=O)N[C@@H](CO)C(=O)N[C@@H](CC(=O)O)C(=O)N[C@@H](Cc1ccc(O)cc1)C(=O)N[C@@H](CCCCN)C(=O)N[C@@H](CC(=O)O)C(=O)N[C@@H](CC(=O)O)C(=O)N[C@@H](CC(=O)O)C(=O)N[C@@H](CC(=O)O)C(=O)N[C@@H](CCCCN)C(N)=O)CSC3`, the Kd was > 10 µM (FGFR4 (Homo sapiens, UniProt P22455); binding, BLI).
For `O=C(/C=C/c1ccc(O)cc1)c1c(O)cc(O)cc1O`, the Kd was 7.61 µM (Chalcone isomerase-like protein 1 (CHIL1, Humulus lupulus, UniProt A0A2U7XUH7, V139F); binding, differential scanning fluorimetry).
With `CC[C@H](C)[C@H](NC(=O)[C@H](Cc1c[nH]cn1)NC(=O)[C@H](CCCCNC(=O)[C@@H](NC(=O)[C@H](CCCCN)NC(=O)CSC[C@H](NC(=O)[C@H](Cc1ccccc1)NC(=O)[C@H](CCCCNC(=O)[C@H](CC(C)C)NC(=O)[C@H](CCCCN)NC(=O)[C@H](CCCCN)NC(=O)C[C@@H]1O[C@@H](C)[C@@H](O)[C@@H](O)[C@@H]1O)NC(=O)[C@H](CC(C)C)NC(=O)[C@H](CCCCN)NC(=O)[C@H](CCCCN)NC(=O)CCS[C@@H]1O[C@H](CO)[C@H](O)[C@H](O)[C@H]1O)C(N)=O)[C@@H](C)CC)NC(=O)[C@@H](NC(=O)[C@H](CCCCN)NC(=O)CSC[C@H](NC(=O)[C@H](Cc1ccccc1)NC(=O)[C@H](CCCCNC(=O)[C@H](CC(C)C)NC(=O)[C@H](CCCCN)NC(=O)[C@H](CCCCN)NC(=O)C[C@@H]1O[C@@H](C)[C@@H](O)[C@@H](O)[C@@H]1O)NC(=O)[C@H](CC(C)C)NC(=O)[C@H](CCCCN)NC(=O)[C@H](CCCCN)NC(=O)CCS[C@@H]1O[C@H](CO)[C@H](O)[C@H](O)[C@H]1O)C(N)=O)[C@@H](C)CC)C(N)=O` the Kd was 0.25 µM (lecA (Pseudomonas aeruginosa, UniProt Q05097); binding, ITC; pH 7.5).
The Kd of `CC[C@H](C)[C@H](NC(=O)[C@H](CCC(=O)O)NC(=O)[C@H](CO)NC(=O)[C@H](CCCNC(=N)N)NC(=O)[C@H](CC(N)=O)NC(=O)[C@H](CO)NC(=O)[C@H](CC(=O)O)NC(=O)[C@@H](NC(=O)[C@H](CCCNC(=N)N)NC(=O)[C@H](C)NC(=O)[C@H](CCCNC(=N)N)NC(=O)[C@H](CO)NC(=O)[C@@H](NC(=O)[C@H](Cc1ccc(O)cc1)NC(=O)[C@@H](NC(=O)[C@@H]1CCCN1C(=O)[C@@H]1CCCN1C(=O)[C@@H]1CCCN1C(=O)[C@@H](NC(=O)[C@H](CC(N)=O)NC(=O)[C@H](Cc1ccccc1)NC(=O)[C@H](C)N)[C@@H](C)CC)[C@@H](C)CC)[C@@H](C)O)[C@@H](C)CC)C(=O)NCC(=O)N[C@@H](Cc1c[nH]cn1)C(=O)N[C@@H](CO)C(=O)N1CCC[C@H]1C(=O)N1CCC[C@H]1C(=O)N1CCC[C@H]1C(=O)N[C@@H](C)C(=O)N[C@@H](Cc1ccc(O)cc1)C(=O)N[C@H](C(=O)N1CCC[C@H]1C(=O)N[C@@H](CCSC)C(=O)N[C@@H](CO)C(=O)O)[C@@H](C)O` is reported as 14 ± 2.6 µM (WW domain-containing oxidoreductase, WW1-WW2 tandem domains (WWOX, Homo sapiens, UniProt Q9NZC7); ITC; tandem WW1-WW2 domain; pH 7.8, 20 °C, some values lower limits only).
The Kd of `CSCC[C@@H]1NC(=O)[C@H](CO)NC(=O)[C@@H](NC(=O)[C@H](CCC(N)=O)NC(=O)[C@H](CCCNC(=N)N)NC(C)=O)CSCCCCSC[C@@H](C(=O)N[C@@H](Cc2ccccc2)C(=O)N[C@@H](Cc2ccc(O)cc2)C(=O)N[C@@H](Cc2c[nH]cn2)C(=O)N[C@@H](CO)C(=O)N[C@@H](CCCCN)C(N)=O)NC(=O)[C@H]([C@@H](C)O)NC1=O` is reported as 1.99 µM (PCNA (Homo sapiens, UniProt P12004); binding, SPR).
The Kd of `CC[C@H](C)[C@H](NC(=O)[C@H](CCCNC(=N)N)NC(=O)[C@H](CCCCN)NC(=O)[C@@H](NC(=O)[C@H](C)NC(=O)[C@H](CCCNC(=N)N)NC(=O)[C@H](CCC(N)=O)NC(=O)[C@H](CO)NC(=O)[C@H](CCCCN)NC(=O)[C@H](CC(N)=O)NC(=O)[C@@H](N)CCCNC(=N)N)[C@@H](C)O)C(=O)N[C@@H](CO)C(=O)N[C@@H](Cc1c[nH]cn1)C(=O)N[C@@H](CCSC)C(=O)N1CCC[C@H]1C(=O)N[C@@H](CO)C(=O)N[C@@H](CCCNC(=N)N)C(=O)N1CCC[C@H]1C(=O)N[C@@H](CCC(=O)O)C(=O)N[C@@H](CC(C)C)C(=O)N[C@@H](CO)C(=O)N[C@@H](C)C(=O)N[C@H](C(=O)N[C@@H](C)C(=O)N[C@H](C(=O)N[C@@H](CC(=O)O)C(=O)N[C@@H](CC(C)C)C(=O)N[C@@H](CCCNC(=N)N)C(=O)N[C@@H](CCCCN)C(=O)N[C@@H](CC(=O)O)C(=O)N[C@@H](CCCCN)C(=O)N[C@@H](C)C(=O)N[C@@H](CCCCN)C(=O)N[C@@H](COP(=O)(O)O)C(=O)N[C@@H](CS)C(=O)OC)[C@@H](C)O)C(C)C` is reported as 3.39 µM (YWHAZ; cell-free assay, FP; pH 7.5).
`C[C@@H](O)[C@H](NC(=O)[C@@H]1CCCN1C(=O)[C@H](CO)NC(=O)[C@H](Cc1ccc(O)cc1)NC(=O)[C@H](COP(=O)(O)O)NC(=O)[C@@H]1CCCN1C(=O)[C@H](COP(=O)(O)O)NC(=O)[C@@H](NC(=O)[C@@H]1CCCN1C(=O)[C@H](CO)NC(=O)[C@H](Cc1ccc(O)cc1)NC(=O)[C@H](CO)NC(=O)[C@@H]1CCCN1C(=O)[C@@H](N)CO)[C@@H](C)O)C(=O)N[C@@H](COP(=O)(O)O)C(=O)N1CCC[C@H]1C(=O)N[C@@H](COP(=O)(O)O)C(=O)N[C@@H](Cc1ccc(O)cc1)C(=O)N[C@@H](CO)C(=O)O` has a Kd of > 1000 µM (Regulation of nuclear pre-mRNA domain-containing protein 1B, CID domain (RPRD1B, Homo sapiens, UniProt Q9NQG5); isothermal titration calorimetry; pH 7.5, 25 °C).
`CC[C@H](C)[C@H](NC(=O)CNC(=O)[C@H](CO)NC(=O)[C@H](C)NC(=O)[C@H](CC(C)C)NC(=O)[C@H](C)NC(=O)[C@H](CC(=O)O)NC(=O)[C@@H](NC(=O)[C@H](CCC(=O)O)NC(=O)[C@H](Cc1c[nH]cn1)NC(=O)[C@H](CCC(=O)O)NC(=O)[C@H](CC(=O)O)NC(=O)[C@H](Cc1ccccc1)NC(=O)[C@H](CC(=O)O)NC(=O)CNC(=O)[C@H](Cc1ccccc1)NC(=O)[C@@H](NC(=O)[C@@H](N)CC(C)C)[C@@H](C)O)C(C)C)C(=O)N[C@H](C(=O)N[C@@H](Cc1ccccc1)C(=O)NCC(=O)N[C@@H](CC(=O)O)C(=O)N[C@@H](Cc1ccccc1)C(=O)N[C@@H](CC(=O)O)C(=O)N[C@@H](CC(=O)O)C(=O)O)[C@@H](C)O` — result for Kd: “no binding” (Ras GTPase-activating protein-binding protein 1, NTF2-like domain (G3BP1, Homo sapiens, UniProt Q13283, F33W); binding).
`CC(C)C[C@H](NC(=O)[C@@H]1CCCN1C(=O)[C@H](CC(=O)O)NC(=O)[C@H](CO)NC(=O)[C@H](C)NC(=O)CC1c2ccccc2-c2ccccc21)C(=O)NCC(=O)N[C@H](C(=O)N[C@H](C(=O)N[C@@H](CCCNC(=N)N)C(=O)NCC(=O)N[C@@H](CCCNC(=N)N)C(=O)N[C@@H](C)C(N)=O)C(C)C)C(C)C` has a Kd of 0.019 ± 0.013 µM (Klotho (Kl, Mus musculus, UniProt O35082); BLI competition binding; 30 min, 30 °C, added: 100 nM mouse Klotho, immobilized Pep-10-Biotin).
For `CC[C@H](C)[C@H](NC(=O)[C@H](CCCNC(=N)N)NC(=O)[C@H](CCCNC(=N)N)NC(=O)[C@H](C)NC(=O)[C@H](CC(C)C)NC(=O)[C@H](CCCNC(=N)N)NC(=O)[C@H](C)NC(=O)[C@H](Cc1c[nH]c2ccccc12)NC(=O)[C@H](CCCCN)NC(=O)[C@H](CCC(=O)O)NC(C)=O)C(=O)N[C@@H](C)C(N)=O`, the Kd was 0.27 µM (Histone chaperone ASF1A (Homo sapiens, UniProt Q9Y294); binding, ITC; pH 7.5).
For `CC(C)C[C@H](NC(=O)[C@H](CCCNC(=N)N)NC(=O)[C@H](CCC(=O)O)NC(=O)[C@H](CCCCN)NC(=O)[C@H](CCCNC(=N)N)NC(=O)[C@H](CCCCN)NC(=O)[C@H](CCC(=O)O)NC(=O)[C@H](CC(C)C)NC(=O)[C@H](Cc1ccccc1)NC(=O)[C@H](CCCNC(=N)N)NC(=O)[C@H](C)NC(=O)[C@H](CC(C)C)NC(=O)[C@H](CO)NC(=O)[C@]1(C)CCCC=CCCC[C@](C)(NC(=O)[C@@H]2CCCN2C(=O)[C@@H](NC(=O)[C@H](CO)NC(=O)c2ccc3c(c2)C(=O)OC32c3ccc(N(C)C)cc3Oc3cc(N(C)C)ccc32)C(C)C)C(=O)N[C@@H](C)C(=O)N[C@@H](CCCNC(=N)N)C(=O)N[C@@H](CCCCN)C(=O)N1)C(=O)O`, the Kd was 2.4 ± 0.5 µM (Transcription factor MYC3 (MYC3, Arabidopsis thaliana, UniProt Q9FIP9); binding, fluorescence anisotropy; pH 8.0, apparent Kd, added: 100 nM TMR-labelled JAZ peptide).
`CC[C@H](C)[C@H](NC(=O)[C@@H](NC(=O)[C@H](Cc1c[nH]c2ccccc12)NC(=O)[C@H](CCC(=O)O)NC(=O)[C@H](CO)NC(=S)Nc1ccc2c(c1)C(=O)OC21c2ccc(O)cc2Oc2cc(O)ccc21)C(C)C)C(=O)N[C@H](C(=O)N[C@H](C(=O)N1CCC[C@H]1C(=O)N[C@@H](Cc1ccccc1)C(=O)N[C@@H](CC(C)C)C(=O)N[C@@H](C)C(=O)N[C@@H](CC(N)=O)C(=O)N[C@@H](CC(C)C)C(=O)O)[C@@H](C)CC)C(C)C` has a Kd of 3.3 ± 0.1 µM (Rgg transcriptional regulator (Streptococcus pneumoniae, UniProt A0A0E7KI02); binder, fluorescence polarization; 20 min, pH 7.4, 20 °C, fluorescein-labelled peptide).
